Results pooled from the literature.
Compare with care: the assays were run in different laboratories.
Organism: Pseudomonas aeruginosa

For `CCCCCCCC(O)CC(=O)N[C@H](CCN)C(=O)N[C@H]1CCNC(=O)[C@H](CC(C)C)NC(=O)[C@H](CCN)NC(=O)[C@H](CCN)NC(=O)[C@H](CC(C)C)NC(=O)[C@@H](CC(C)C)NC(=O)[C@H](CCN)NC1=O` (stereo partly drawn), the MIC was 2 µg/mL (broth microdilution; ATCC 27853, polymyxin susceptible, CAMHB; 18 h, 37 °C).
For `CC(C)[C@H](NC(=O)[C@H](CCCCN)NC(=O)[C@H](CCCNC(=N)N)NC(=O)CNC(=O)[C@H](C)NC(=O)[C@H](CC(N)=O)NC(=O)[C@H](CCCNC(=N)N)NC(=O)[C@@H](NC(=O)[C@H](CCCCN)NC(=O)[C@H](CC(=O)O)NC(=O)[C@@H](NC(=O)[C@@H](NC(=O)[C@H](CCCNC(=N)N)NC(=O)[C@H](CCCNC(=N)N)NC(=O)[C@H](Cc1c[nH]c2ccccc12)NC(=O)[C@H](Cc1c[nH]c2ccccc12)NC(=O)CN)[C@@H](C)O)C(C)C)C(C)C)C(=O)O`, the MIC was > 256 µg/mL (clinical strain 103; 18 h, 37 °C).
The MIC of `CCCCCCCCCCCCCCCc1cc(O)cc(O)c1` is reported as > 64 µg/mL (broth microdilution; PAO1 chloramphenicol-resistant; 37 °C).
With `CCCCCCCCCCCC(=O)NCCCC[C@H](N)C(=O)N[C@@H](CCCNC(=N)N)C(=O)N[C@@H](CCCNC(=N)N)C(=O)N[C@@H](CCCNC(=N)N)C(=O)N[C@@H](CCCNC(=N)N)C(=O)N[C@@H](CCCNC(=N)N)C(=O)O` the MIC was > 139 µg/mL (broth microdilution; PAO1; 37 °C).
With `CC[C@H](C)[C@H](NC(=O)[C@H](C)NC(=O)[C@@H](NC(=O)[C@H](CC(=O)O)NC(=O)[C@H](CCCCN)NC(=O)[C@H](CO)NC(=O)[C@@H](NC(=O)[C@H](CC(N)=O)NC(=O)[C@H](C)NC(=O)[C@@H](NC(=O)[C@H](CCC(=O)O)NC(=O)[C@H](CCCCN)NC(=O)[C@@H](NC(=O)[C@@H](NC(=O)[C@H](Cc1c[nH]cn1)NC(=O)[C@H](CCCCN)NC(=O)[C@@H](NC(=O)[C@H](CCCCN)NC(=O)[C@H](CCCCN)NC(=O)[C@@H](NC(=O)[C@H](CC(C)C)NC(=O)[C@H](CCCCN)NC(=O)[C@H](CC(N)=O)NC(=O)[C@H](Cc1ccccc1)NC(=O)[C@H](CCCNC(=N)N)NC(=O)[C@H](CCCCN)NC(=O)[C@H](CCCNC(=N)N)NC(=O)[C@H](Cc1ccccc1)NC(=O)CN)C(C)C)C(C)C)[C@@H](C)O)[C@@H](C)CC)[C@@H](C)O)C(C)C)C(C)C)C(=O)N[C@H](C(=O)N[C@@H](C)C(=O)NCC(=O)N[C@@H](CO)C(=O)NCC(=O)N[C@H](C(=O)N[C@@H](C)C(=O)N[C@H](C(=O)NCC(=O)N[C@@H](C)C(=O)N[C@@H](C)C(=O)N[C@@H](CCSC)C(N)=O)C(C)C)C(C)C)C(C)C` the MIC was 8 µg/mL (broth microdilution; ATCC 27853, CAMHB).
`CC(C)C[C@@H]1NC(=O)[C@H](CC(C)C)NC(=O)[C@H](CCCCN)NC(=O)CSC[C@@H](C(=O)N[C@@H](CCCCN)C(N)=O)NC(=O)[C@H](CCCCN)NC(=O)[C@H](CC(C)C)NC(=O)[C@H](CCCCN)NC(=O)[C@@H]2CSCC(=O)N[C@@H](CCCCN)C(=O)N[C@@H](CC(C)C)C(=O)N[C@@H](CC(C)C)C(=O)N[C@@H](CCCCNC1=O)C(=O)N[C@@H](CCCCN)C(=O)N[C@@H](CC(C)C)C(=O)N[C@@H](CC(C)C)C(=O)N2` gave an MIC of 128 µg/mL (PAO1; 18 h).
`CC(C)[C@@H]1NC(=O)[C@@H]2CCCN2C(=O)[C@@H](C)NC(=O)[C@H](CO)NC(=O)[C@H](C)NC(=O)[C@H](C(C)(C)C)NC(=O)[C@H](CCO)NC(=O)[C@H](Cc2c[nH]c3ccccc23)NC(=O)[C@H](CCO)NC(=O)[C@@H](CCN)NC(=O)[C@H](CCC(N)=O)NC(=O)[C@H](CCN)NC(=O)[C@H](Cc2ccc(O)cc2)NC(=O)[C@H]([C@@H](C)O)NC1=O` has an MIC of > 64 µg/mL (broth microdilution; M-120; 16 h, 0.002% polysorbate-80).
With `CC[C@@H](C)[C@@H](NC(=O)[C@@H](CCCCN)NC(=O)[C@H]1CCCN1C(=O)[C@H](NC(=O)[C@@H](CC(C)C)NC(=O)[C@@H](CCCCN)NC(=O)[C@@H](CC(C)C)NC(=O)[C@H](NC(=O)[C@@H](CO)NC(=O)CNC(=O)[C@@H](Cc1ccccc1)NC(=O)[C@H](N)Cc1ccccc1)C(C)C)[C@H](C)CC)C(=O)N[C@H](CC(C)C)C(N)=O` the MIC was > 100 µM (broth microdilution).
The MIC of `C[C@@](O)(C(F)F)[C@H](NC(=O)c1ccc(C#CC#CC2CC2)cc1)C(=O)NO` is reported as 0.125 µg/mL (broth microdilution; PAO1, CAMHB).
The MIC of `CC[C@H](C)[C@H](NC(=O)[C@H](CC(=O)O)NC(=O)[C@H](Cc1ccccc1)NC(=O)[C@H](CC(C)C)NC(=O)CN)C(=O)N[C@H](C(=O)N[C@@H](CCCCN)C(=O)N[C@@H](CCCCN)C(=O)N[C@H](C(=O)N[C@@H](CC(C)C)C(=O)N[C@@H](CCCCN)C(=O)N[C@@H](CC(C)C)C(=O)N[C@@H](CC(C)C)C(=O)N[C@@H](CCCCN)C(N)=O)C(C)C)C(C)C` is reported as > 20 µM (ATCC 19606, CAMHB; 18 h, 37 °C).
`CC(C)C[C@@H]1NC(=O)[C@H](CCCCN)NC(=O)CSC[C@@H](C(=O)N[C@@H](CCCCN)C(N)=O)NC(=O)[C@H](CC(C)C)NC(=O)[C@H](CC(C)C)NC(=O)[C@H](CC(C)C)NC(=O)[C@@H]2CSCC(=O)N[C@@H](CCCCN)C(=O)N[C@@H](CC(C)C)C(=O)N[C@@H](CCCCN)C(=O)N[C@@H](CCCCNC(=O)[C@H](CCCCN)NC1=O)C(=O)N[C@@H](CCCCN)C(=O)N[C@@H](CC(C)C)C(=O)N[C@@H](CC(C)C)C(=O)N2` gave an MIC of 32 µg/mL (PAO1; 18 h).
`CCCCCCCC[C@@H]1NC(=O)[C@@H](Cc2ccccc2)NC(=O)[C@H](CCN)NC(=O)[C@@H](NC(=O)[C@H](CCN)NC(=O)[C@@H](NC(=O)[C@H](CCN)NC(=O)c2ccc(-c3ccccc3)cc2)[C@@H](C)O)CCNC(=O)[C@H]([C@@H](C)O)NC(=O)[C@H](CCN)NC(=O)[C@H](CCN)NC1=O` gave an MIC of 4 µg/mL (broth microdilution; ATCC 27853, polymyxin-susceptible).

Excerpt of the above:
`CC(C)[C@@H]1NC(=O)[C@@H]2CCCN2C(=O)[C@@H](C)NC(=O)[C@H](CO)NC(=O)[C@H](C)NC(=O)[C@H](C(C)(C)C)NC(=O)[C@H](CCO)NC(=O)[C@H](Cc2c[nH]c3ccccc23)NC(=O)[C@H](CCO)NC(=O)[C@@H](CCN)NC(=O)[C@H](CCC(N)=O)NC(=O)[C@H](CCN)NC(=O)[C@H](Cc2ccc(O)cc2)NC(=O)[C@H]([C@@H](C)O)NC1=O` has an MIC of > 64 µg/mL (broth microdilution; M-120; 16 h, 0.002% polysorbate-80).
